Measurements collected from several papers.
Compare with care: the assays were run in different laboratories. ± marks the error that the study gave.

Compound | test | system | setting | quantity | value
CC(=O)Nc1ccc(C[C@H](NC(=O)[C@H](CO)NC(=O)[C@@H](Cc2cccnc2)NC(=O)[C@@H](Cc2ccc(Cl)cc2)NC(=O)[C@@H](Cc2ccc3ccccc3c2)NC(C)=O)C(=O)N[C@H](Cc2ccc(NC(C)=O)cc2)C(=O)N[C@@H](CC(C)C)C(=O)N[C@@H](CCCCNC(C)C)C(=O)N2CCC[C@H]2C(=O)N[C@H](C)C(N)=O)cc1 | – | healthy men, fasted, serum | oral, 40 mg single dose | terminal half-life | 10.7 ± 3.2 h
O=C(c1cccnc1-c1ccncc1)N1CCC(O)(Cc2ccccc2)CC1 | – | healthy Japanese adults, plasma | oral, 200 mg twice daily, day 14 | terminal elimination rate constant | 7.78e-05 s⁻¹
C#C[C@]1(O)CC[C@H]2[C@@H]3CCC4=CC(=O)CC[C@@H]4[C@H]3CC[C@@]21C | radioimmunoassay | HIV-infected women on protease inhibitor therapy, serum | oral, 0.35 mg, geometric mean | terminal half-life | 22.5 h
CC[C@H](C)CCCCC(=O)N[C@@H](CCN)C(=O)N[C@H](C(=O)N[C@@H](CCN)C(=O)N[C@H]1CCNC(=O)[C@H]([C@@H](C)O)NC(=O)[C@H](CCN)NC(=O)[C@H](CCN)NC(=O)[C@H](CC(C)C)NC(=O)[C@@H](Cc2ccccc2)NC(=O)[C@H](CCN)NC1=O)[C@@H](C)O | – | mild renal insufficiency patients, plasma | IV infusion, 0.75 mg/kg, 1 h infusion, arithmetic mean | terminal elimination rate constant | 2.71e-05 s⁻¹
C=CC(=O)NC1CCN(c2ncc3ncnc(Nc4ccc(Oc5ccc6c(c5)ncn6C)c(C)c4)c3n2)CC1 | – | healthy male volunteers, plasma | oral, 60 mg, unlabelled tablet | terminal half-life | 45.2 h
CS(=O)(=O)c1ccc([C@@H](O)[C@@H](CF)NC(=O)C(Cl)Cl)cc1 | – | Arbor Acres chickens, plasma | oral, 20 mg/kg, with: quercetin 20 mg/kg pretreatment | terminal half-life | 2.25 ± 0.49 h
COc1nnc2ccc(N3CCC(c4ccc(OCCN5CCN(C)C(=O)[C@H]5C)cc4)CC3)nn12 | – | patients, plasma | oral, 10 mg twice daily, multiple dose, monotherapy | terminal half-life | 2.39 h
COC(=O)c1ccc2c(c1)NC(=O)/C2=C(\Nc1ccc(N(C)C(=O)CN2CCN(C)CC2)cc1)c1ccccc1 | – | healthy volunteers, plasma | oral, 150 mg, with: pirfenidone | terminal half-life | 13.7 h

A few entries again:
Compound | test | system | setting | quantity | value
CC[C@H](C)CCCCC(=O)N[C@@H](CCN)C(=O)N[C@H](C(=O)N[C@@H](CCN)C(=O)N[C@H]1CCNC(=O)[C@H]([C@@H](C)O)NC(=O)[C@H](CCN)NC(=O)[C@H](CCN)NC(=O)[C@H](CC(C)C)NC(=O)[C@@H](Cc2ccccc2)NC(=O)[C@H](CCN)NC1=O)[C@@H](C)O | – | mild renal insufficiency patients, plasma | IV infusion, 0.75 mg/kg, 1 h infusion, arithmetic mean | terminal elimination rate constant | 2.71e-05 s⁻¹
